# Experimental data of several laboratories.
# Every numbered part comes from another study and shows a few of its results, in no order.

# Study 1
# Target: Histone acetyltransferase KAT6A, winged helix 2, GST fusion (KAT6A, Homo sapiens, UniProt Q92794, residues 85-181)
# Technique: protein binding microarray
# Form: double-stranded DNA, one strand shown
# Sample: in vitro
# Tested at: not given
# Setting: 8-mer, flanks averaged, mean of 2 arrays, mostly near background
# Reference: not given
# Direction: higher = stronger binding
# Residues (chain): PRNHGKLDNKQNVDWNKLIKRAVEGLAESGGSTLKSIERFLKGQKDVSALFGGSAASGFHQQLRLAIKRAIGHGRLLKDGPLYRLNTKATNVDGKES
Sequence,E-score
CTAAAACA,-0.0864
ACCGGAAC,-0.0103
ACTTGACA,-0.00351
CCTAGACG,-0.0588
AAAGTCTC,-0.289

# Study 2
# Target: Phosphate system positive regulatory protein PHO4, full length, GST-tagged (PHO4, Saccharomyces cerevisiae, UniProt P07270, residues 1-312)
# Technique: competition protein-binding microarray
# Form: double-stranded DNA, one strand shown
# Sample: in vitro
# Tested at: 2 µM
# Setting: whole 60-bp probe, lowest competitor level
# With: Cbf1 competitor, 0.05 µM
# Direction: higher = stronger binding
# Construct (chain): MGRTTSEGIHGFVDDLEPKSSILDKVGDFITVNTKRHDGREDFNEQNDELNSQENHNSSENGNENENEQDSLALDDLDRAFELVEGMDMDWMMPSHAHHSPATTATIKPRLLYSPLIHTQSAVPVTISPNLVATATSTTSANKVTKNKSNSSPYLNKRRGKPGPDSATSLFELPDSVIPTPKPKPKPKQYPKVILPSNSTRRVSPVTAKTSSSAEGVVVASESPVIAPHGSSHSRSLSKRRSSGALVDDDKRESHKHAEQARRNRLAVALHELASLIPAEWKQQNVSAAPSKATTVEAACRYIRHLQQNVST
Sequence,fluorescence intensity
AGCAACCGCACACAGAATGTGACGGCAAATGCATTTGTCTTGATTCGCTTGACGCTGCTG,5050 a.u.
TCACAGGAAAAGGCCCACATGCCAAAAAGGGTACCAGTCTTGATTCGCTTGACGCTGCTG,11000 a.u.
GCACTTTCACTACTAGACGTGCTTTTAAAAAATTGTGTCTTGATTCGCTTGACGCTGCTG,7140 a.u.

# Study 3
# Target: PABPC1L2, full length, GST fusion (mouse, UniProt A0ABA7IW68)
# Technique: RNAcompete
# Form: RNA
# Sample: in vitro
# Tested at: 20 nM
# Setting: 7-mer, probes averaged, single round
# Reference: mean of 7-mers
# Direction: higher = stronger binding
# Target sequence (chain): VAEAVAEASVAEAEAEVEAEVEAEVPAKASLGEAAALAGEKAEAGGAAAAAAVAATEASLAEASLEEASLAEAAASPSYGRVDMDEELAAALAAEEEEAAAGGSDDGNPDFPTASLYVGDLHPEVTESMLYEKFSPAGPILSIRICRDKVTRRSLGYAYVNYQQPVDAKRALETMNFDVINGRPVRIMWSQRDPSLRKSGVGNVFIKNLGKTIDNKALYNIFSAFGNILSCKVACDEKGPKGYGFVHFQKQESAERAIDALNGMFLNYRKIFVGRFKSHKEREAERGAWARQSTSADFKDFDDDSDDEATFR
Sequence,7-mer Z-score
UGCGACG,0.104
UCUAAAG,0.0932
CUCAAUU,-0.146
GUUGCCA,-0.0355

# Other studies, line by line
Molecule,target,assay,test system,setting,how to read,quantity,value
"PhoQ, residues 284 288 289 292 302 303 SSTMSV","PhoP, residues 12 14 15 18 19 VHSCL (Escherichia coli, UniProt P23836)","Sort-seq, item: YFP reporter",E. coli,"PhoQ-PhoP variant library, with: 10 µM Mg2+","reference: high Mg2+ state, higher = stronger signaling",fold induction,2.61
